Measurements pooled from the literature.
Each numbered part is a random draw from the data of one study; scales do not carry over between parts. Positions count from the first letter of the parent shown.

Sample 1 — target: CCNA1, cyclin fold, Cln2 fusion (human); technique: yeast growth competition, sequencing; sample: yeast; setting: weak parent motif; baseline: not given; reading: higher = stronger binding
Starting sequence: WEE1 docking peptide (human); HKTFRKLRLFDTP; partner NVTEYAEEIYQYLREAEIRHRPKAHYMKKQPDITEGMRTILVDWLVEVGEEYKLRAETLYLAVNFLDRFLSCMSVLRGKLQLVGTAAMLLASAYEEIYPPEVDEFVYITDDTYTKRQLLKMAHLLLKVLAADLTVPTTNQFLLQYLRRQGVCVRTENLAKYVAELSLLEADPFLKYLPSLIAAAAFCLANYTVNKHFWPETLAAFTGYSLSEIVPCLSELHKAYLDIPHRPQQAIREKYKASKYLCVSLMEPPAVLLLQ
Change | normalised enrichment score
R8P | 0.116
R5A | -0.475
K6C | 0.353
F4I | 0.274
R5H | 0.522
H1P | 0.14
K2W | 0.186
F4C | 0.203
L7I | 0.566
L7T | 0.368
F10D | 0.0356
P13R | -0.0904
R8I | 0.697

Sample 2 — technique: DHFR PCA, deep sequencing; sample: yeast; added: (+)-ABA 2500 µM; baseline: wild-type fitted maximum; reading: higher = stronger binding
Target: ABI1, truncated, D143A, DHFR fusion (Arabidopsis thaliana)
Setting: methotrexate growth selection, single substitutions
Starting sequence: PYL1, truncated, DHFR fusion (Arabidopsis thaliana); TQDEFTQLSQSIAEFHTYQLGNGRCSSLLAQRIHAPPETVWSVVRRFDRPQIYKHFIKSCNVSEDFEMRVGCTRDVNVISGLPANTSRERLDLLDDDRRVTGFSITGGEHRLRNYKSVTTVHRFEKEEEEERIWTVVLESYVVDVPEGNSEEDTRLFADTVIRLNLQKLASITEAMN; partner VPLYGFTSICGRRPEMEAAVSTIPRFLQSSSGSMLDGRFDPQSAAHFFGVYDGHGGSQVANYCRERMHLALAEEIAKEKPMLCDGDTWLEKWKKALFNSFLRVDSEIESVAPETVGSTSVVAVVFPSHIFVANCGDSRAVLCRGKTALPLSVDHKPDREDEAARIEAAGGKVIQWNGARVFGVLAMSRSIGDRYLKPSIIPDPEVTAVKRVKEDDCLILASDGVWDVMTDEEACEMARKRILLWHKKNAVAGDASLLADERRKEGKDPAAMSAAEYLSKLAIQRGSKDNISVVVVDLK
Change | relative binding score [%]
Y141N | -2.98
F47C | 5.77
I79V | 95.3
D144M | 85.9
T39K | 99.9
R123L | 102
F103Y | 103
S42L | 93.7
L166S | 31.3

Sample 3 — target: CEP164, C-terminal peptide (human); technique: DHFR complementation, deep sequencing; sample: yeast; baseline: wild type; reading: higher = weaker binding
Setting: single substitutions, model-inferred values
Starting sequence: PDZK1, PDZ domain 2 (human); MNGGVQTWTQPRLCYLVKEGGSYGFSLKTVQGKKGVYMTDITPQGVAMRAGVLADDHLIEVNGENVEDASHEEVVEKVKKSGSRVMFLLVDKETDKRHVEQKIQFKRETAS; partner HNRVKVYRF
Change | binding free energy change [kcal/mol]
E67K | 0.303
L27A | 0.295
H71L | -0.478
F87Y | 1.89
E67L | -0.0574
H57C | -0.395
K80V | 0.408
L16N | 1.48
K92I | -0.013
L13S | 0.0179
N2V | -0.0866
L88E | 0.862

Further values, each from its own experiment
Molecule | target | assay | test system | conditions | how to read | quantity | value
PhoQ, residues 284 288 289 292 302 303 NLMGRA | PhoP, residues 12 14 15 18 19 DLLYY (Escherichia coli, UniProt P23836) | Sort-seq, item: YFP reporter | E. coli | PhoQ-PhoP variant library, added: 10 µM Mg2+ | baseline: high Mg2+ state, higher = stronger signaling | fold induction | 1.75

A few entries again (sample 3):
Change | binding free energy change [kcal/mol]
L27A | 0.295
N2V | -0.0866
K80V | 0.408
E67L | -0.0574
H71L | -0.478
